Assay results pooled from the literature.
Each numbered part is a random draw from the data of one study; scales do not carry over between parts. Changes are numbered by the printed parent chain.

Sample 1
Target: ABI1, truncated, D143A, DHFR fusion (Arabidopsis thaliana)
Technique: DHFR PCA, deep sequencing
Medium: yeast
Notes: methotrexate growth selection, single substitutions
With: (+)-ABA 0.11 µM
Relative to: wild-type fitted maximum
Reading: higher = stronger binding
Starting sequence: PYL1, truncated, DHFR fusion (Arabidopsis thaliana); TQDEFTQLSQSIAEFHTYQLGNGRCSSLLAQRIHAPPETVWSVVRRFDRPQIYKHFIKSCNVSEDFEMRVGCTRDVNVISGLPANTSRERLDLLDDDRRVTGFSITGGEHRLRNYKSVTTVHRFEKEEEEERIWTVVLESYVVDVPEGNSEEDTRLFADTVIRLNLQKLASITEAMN
Substitution | relative binding score
T173I | 5.02%
Q10E | 54.8%
S26P | -1.19%
G148T | 1.9%
E129R | 18.1%
P83S | 24.6%
P37F | 3.03%
F124L | 46.4%
S27W | 2.62%
V145M | -10.6%
E128S | 37.7%
L20Q | 42.5%
D75F | 27.6%
F47W | -2.37%
Q167E | 40.7%

Sample 2
Target: CCND3, cyclin fold, Cln2 fusion (human)
Technique: yeast growth competition, sequencing
Medium: yeast
Notes: weak parent motif
Relative to: not given
Reading: higher = stronger binding
Starting sequence: CDKN1A docking peptide (human); SKACRRLFGPVDS; partner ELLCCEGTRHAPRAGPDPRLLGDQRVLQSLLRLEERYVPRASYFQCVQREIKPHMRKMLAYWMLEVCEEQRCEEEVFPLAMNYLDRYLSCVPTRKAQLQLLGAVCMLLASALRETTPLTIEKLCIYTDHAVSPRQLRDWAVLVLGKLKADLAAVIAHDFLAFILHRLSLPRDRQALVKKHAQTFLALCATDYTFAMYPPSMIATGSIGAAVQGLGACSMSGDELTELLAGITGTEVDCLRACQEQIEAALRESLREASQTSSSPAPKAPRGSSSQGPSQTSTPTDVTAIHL
Substitution | normalised enrichment score
SKACRRLFCPVDS [G9C] | 0.245
SKACRRYFGPVDS [L7Y] | 0.408
SKACDRLFGPVDS [R5D] | -0.259
SKACNRLFGPVDS [R5N] | 0.14
SKACRREFGPVDS [L7E] | -0.00611
SKACRRLFGPVCS [D12C] | 0.395
SKACRDLFGPVDS [R6D] | 0.442
SKACRRLFGPGDS [V11G] | 0.0823
SKACPRLFGPVDS [R5P] | -0.132
SKACRRSFGPVDS [L7S] | 0.03
SKACRRLFGLVDS [P10L] | -0.139
SKACERLFGPVDS [R5E] | -0.127
SKACQRLFGPVDS [R5Q] | 0.155
SKACARLFGPVDS [R5A] | -0.00287
SKTCRRLFGPVDS [A3T] | 0.452
SKACRRLFGPVMS [D12M] | 0.825
SKACRVLFGPVDS [R6V] | 0.289
SKSCRRLFGPVDS [A3S] | -0.00268
SKACRRLFAPVDS [G9A] | 0.173
SKACRYLFGPVDS [R6Y] | 0.279
SKACRRLPGPVDS [F8P] | 0.107
SKQCRRLFGPVDS [A3Q] | 0.243

Sample 3
Target: RNA binding protein fox-1 homolog 2, RRM domain, GST-SBP tag (RBFOX2, Homo sapiens, UniProt O43251-10, residues 100-194)
Technique: RNA Bind-n-Seq
Molecule type: RNA
Medium: in vitro
Tested at: 365 nM
Notes: natural RNA segment, single round, ends assumed
Relative to: no-protein control
Reading: higher = stronger binding
All sequences stand within: GGGAGUUCUACAGUCCGACGAUC … UGGAAUUCUCGGGUGCCAA
Residues (chain): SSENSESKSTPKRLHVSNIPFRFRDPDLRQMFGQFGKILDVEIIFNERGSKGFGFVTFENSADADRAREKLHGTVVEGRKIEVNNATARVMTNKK
Strand | RBNS enrichment (R)
UUAAAAGUUUACAAAAUUUUUUUUUUUGUUUUGAGACAGAGUAUGGCUUUGUUACCCAGGCUGGAUUGCAAUGGGGUGAUCUAGGCUCACUGCAGCCUCCACCACCUGAG | 0.474
CUUUCUCCUGUGGUCUCUUAAUCCAGUAAUUGUAUUACUGCCAUUAAAGGAUGCAGUUAUUUUAAAAGCUUGUGGGUCUGGUCUCUCCAGGCUGCCCCAGACCAUCCCUU | 0.215
AUCUGGGCAUGUCUGCACAAGCAAUGCAACGCUGGGCCACUGCUGCCCGUCUGCCUCCCCGGCACGGCACGGCUCCGCACGCAACCUAAGCGUGCCACCACGGUCUCUUA | 0.725
UGUCCAGCAUGACCCAUAAACAGGUCAGAAGAAUGAUGGAAUGUUUUAGAAUAAACUCCUGCUUAUAGUAUACUACACAGUUCAAAAGAUGUUUAAAAUGCUUUUGUAUU | 2.9
UUUGGCCUGGUCCCAGGGGCCAGAGCUGGCAGUGGCUCCCAGAGCUCUGUCCAGCCACAAGUUUGAGCAGAGGAUGUGGGGACCUCCCACAGGACACUGCUCCAACCCAA | 0.284
UGCCAUUUCGUGUCUGUGGUAACAAAGUGACUUGUAAAAUGGUGGAUGUUUCCCUCACUGUGUUCUCUUCGUGGGUUGUUUCCUUGUGGGUCAUAGUCAUACCUUCUGAU | 0.256
CACCCAGUUCCGCUCAGGGCCAUACAGGCUUGCACAUAGAGUGUGCUAAAAAUGGUAACCUCCUUUGAGCAUUGCAGAAAGAGGGUUCUGUUUCAAAUUGGGCUGACCGU | 0.437
ACAGAGCUAAAGAAACGUUUUUUAAAAAACUACUUUUAAUCCAGAUCCAUGGAAUAAUAUGUAAUUCUUGUUUUCCUUGUCUUUUAGUCCAGUUUUUCUUUUUCCCUCUC | 0.547
CCUUUCUCUACCACAGCAAACACAUUCUCCACCAUGUCAGUCUAAAGAGUCUAAAGGGGCCGGGAGAAGCAUGAGCGAGGGGCAGAUUCUAGUCGGGAGCCCAUGCCCUG | 0.646
UUUAGUGGCUGUCUGAAACCCCAUGUGUGAAGGGCCCCUUGCCCAACAGGGUUGAGGUGGGGAGCAAGAGCAAUCUGUUUUUAUUUGCUCGUAUGUCAGGGACAGGUGUU | 3.99
GCCUGUCUCAAGCUCUUCCUUACUCCCAGGCACUGUCUUAAGGCAUCUGACAUGCAUCAUCUCAUUUAAUCCUCCCUUCCUCCCUAUUAACCUAGAGAUUGUUUUUGUUU | 2.78
UGCUGGCUUUAGCCCCAUGCUCAGGGUUCUCUGGGAAGUUUCAGGUUUCCAAGAUAGCACAGUGACCACAAAGGGAGAUUUUAGCAGAGCCAGCCUGCUAGAAGGCAGGA | 0.314

Sample 4
Target: Protein C-ets-1 (ETS1, Homo sapiens, UniProt P14921, residues 1-441, full length assumed)
Technique: protein-binding microarray
Molecule type: double-stranded DNA, one strand shown
Medium: in vitro
Tested at: not given
Notes: k-mer, scored over probes, only values ≥0.25
Reading: higher = stronger binding
Construct (chain): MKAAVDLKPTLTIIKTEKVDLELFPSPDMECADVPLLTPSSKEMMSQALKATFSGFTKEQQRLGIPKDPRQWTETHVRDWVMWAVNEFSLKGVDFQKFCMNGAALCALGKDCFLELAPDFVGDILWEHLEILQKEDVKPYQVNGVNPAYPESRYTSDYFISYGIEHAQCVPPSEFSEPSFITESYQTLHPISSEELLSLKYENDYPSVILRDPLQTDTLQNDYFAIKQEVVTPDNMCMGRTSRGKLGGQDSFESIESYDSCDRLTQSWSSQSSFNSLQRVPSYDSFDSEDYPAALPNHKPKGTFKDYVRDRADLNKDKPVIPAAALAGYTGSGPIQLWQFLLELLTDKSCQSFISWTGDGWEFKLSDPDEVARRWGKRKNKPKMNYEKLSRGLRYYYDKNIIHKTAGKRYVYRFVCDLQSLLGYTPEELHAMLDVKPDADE
Strand | E-score
AGCGGATC | 0.277
CCACTCAG | 0.259
GTTCCGGA | 0.461
AAATGGAG | 0.26
GACGGAAA | 0.452
CGGATGCC | 0.465
GCGCATCC | 0.386
ATCCGGAC | 0.434
GCGGATAC | 0.432
ATCCCGTC | 0.273
GGTGGGAA | 0.279
CCGGAGGA | 0.325
ACGACATC | 0.264
CGGATTTA | 0.278
CGGAACAA | 0.356
ACGGATAA | 0.323
CGTCGGAA | 0.284
GGAAAGGA | 0.344
CATCCCGA | 0.318
GCAGGATA | 0.397
CTACCGGC | 0.27
ACCGCCGG | 0.266
CCGGATGA | 0.466
AATCCCCG | 0.308
ATCTCCGG | 0.339

Sample 5
Target: RING finger protein unkempt homolog, zinc fingers 1-6, GST-SBP tag (UNK, Homo sapiens, UniProt Q9C0B0, residues 30-357)
UniProt Q9C0B0, sequence (30-357, looked up): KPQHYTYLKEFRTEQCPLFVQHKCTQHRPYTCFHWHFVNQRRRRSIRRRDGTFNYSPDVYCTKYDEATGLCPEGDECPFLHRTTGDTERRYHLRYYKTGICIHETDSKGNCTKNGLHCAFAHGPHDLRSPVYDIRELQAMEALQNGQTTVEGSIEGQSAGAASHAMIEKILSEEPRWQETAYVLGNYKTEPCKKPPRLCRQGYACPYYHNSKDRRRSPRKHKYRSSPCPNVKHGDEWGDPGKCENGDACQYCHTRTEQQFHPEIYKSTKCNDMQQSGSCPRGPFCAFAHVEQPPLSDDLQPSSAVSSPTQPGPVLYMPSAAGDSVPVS
Technique: RNA Bind-n-Seq
Molecule type: RNA
Medium: in vitro
Tested at: not given
Notes: RNA with constant flanks, human and mouse sites, ends assumed
Relative to: input RNA pool
Reading: higher = stronger binding
All sequences stand within: GGGAGUUCUACAGUCCGACGAUC … CAACAGAGGAUUGAGCAUCA
Strand | bound/input enrichment [ratio]
GAGGUGGUUCCUAUUCACCAACUGGACAUUCCUGUUGAUAACCCAAUCGAGAGCAAUAACAUUUUUCUGGUGGCCCCUUUGAUCAUCUGCCACGUGAUUGACAAGCGCAGUCCCCUGUAU | 0.254
GAUGUAAAAAAAAAAAAAAAAAAAAAAAAAAAAACACACACACAGAGGAAAGACGCUCUUUAGGUUUUGUUUUGUUUUUUUUUUUUGGUUUUGUUUUUUGUUUUUUUUACUCUAGGGAAA | 1.32
AUCAUGGAUAAAAACACACUAGGGAGUGAUUUGCCCCGGAUCAAAACGGAGAUUGAGGCCUUGAAGAACCUGAGACAUCAGCAUAUAUGUCAACUCUACCAUGUGCUAGAGACAGCCAAC | 0.248
GGAUUCCGGUUCCGGUGGGCCUCCAUCAGCAAGCUCCAGUGCUACGUGUCCCUGGCAUUUUAGGUGUCGGUUGGGUAGGCAGUCAUGGAUCAGGUAAUGCAGUUUGUUGAGCCAAGUCGG | 0.293
GAGCUGGAGCAGAGCCUGCUAUUGGAGAAGGCGCAGGCCGAGCGGCUGCUCAGAGAAUUAGCGGAUAACAGGCUGACCACAGUGGCUGAGAAGUCUCGGGUGCUGCAGCUGGAAGAAGAG | 0.275
CCUUGGCACUGGCCUCCAGCAAGCCCUGUUCUCUUUGGGGUACAGGGGAACGGGAUGGUUUAGACUUUCCUGCUCAGUGUGUAAAAAAUGUAGCUAAAGCCACUAUUUUUGCUCUCCUUA | 0.208
UCAAAGAAGACAGCAAUGGCUGCUGCCAAGGCCCCCACAAAGGCAGCACCUAAACAAAAGAUUGUGAAGCCUGUGAAGGUCUCUGCCCCCAGAGUUGGUGGGAAACGCUAGUGUGGUAGA | 0.39
GAUGUUCAGAGAACUCUUUAUUUGGCCUGACCCCCUCUCUCAGUAUGCCUGAUCUCAGGAUUUGUUGGGGGAAAAAAAUCACAAAAAUAAGAUGAAAAGAAAUCUUUGUGCUUUGGGGUC | 0.104
CUUGUUUAUCACAUUGGCCUUACUCCAGCGAAACUUCCAGAUCUAGUGGAGAACAACCCUUUAGUCGCUAUAGAAAUGCUGCUGAAACUGAUGCAGUCAAGCCAGAUCACGGAGUAUUUC | 1.43
GGCAUGCAUGGAGGUGGUCCUGGUGGUCCUGGAGGUGGCCCCCACAGCUUCCCACACCCAUUACCCAGCCUGACAGGUGGGCAUGGUGGGCAUCCCAUGCAGCACAACCCAAAUGGACCA | 0.121
UUCUAGUGAAUCUGUGAUAUUGGAAAUUAUUAUUAUGGACAGGGUCAUCCCAUGAAGCCUCAUAGAAUCCGCAUGACCCAUAACUUGCUGUUAAAUUAUGGCUUAUACAGAAAAAUGGAA | 0.423

Mixed results
Substance | target | test | test system | setting | scale | endpoint | result
PhoQ, residues 284 288 289 292 302 303 TLMATV | PhoP, residues 12 14 15 18 19 HLGGL (Escherichia coli, UniProt P23836) | Sort-seq, measured: YFP reporter | E. coli | PhoQ-PhoP variant library, with: 10 µM Mg2+ | relative to: high Mg2+ state, higher = stronger signaling | fold induction | 29
